{"data": "Experimental data pooled from the literature", "note": "A part holds a random share of what one study measured. Positions count from the first letter of the parent shown."}
{"data": "Sample 1", "target": "Centromere-binding protein 1, full length, His-tagged (CBF1, Saccharomyces cerevisiae, UniProt P17106, residues 1-351)", "method": "competition protein-binding microarray", "molecule type": "double-stranded DNA, one strand shown", "sample": "in vitro", "tested at": "2 µM", "setting": "whole 60-bp probe, lowest competitor level", "with": "Pho4 competitor, 0.05 µM", "reading": "higher = stronger binding", "shared flanks, not repeated": "… GTCTTGATTCGCTTGACGCTGCTG", "UniProt P17106, sequence (whole entry, looked up)": "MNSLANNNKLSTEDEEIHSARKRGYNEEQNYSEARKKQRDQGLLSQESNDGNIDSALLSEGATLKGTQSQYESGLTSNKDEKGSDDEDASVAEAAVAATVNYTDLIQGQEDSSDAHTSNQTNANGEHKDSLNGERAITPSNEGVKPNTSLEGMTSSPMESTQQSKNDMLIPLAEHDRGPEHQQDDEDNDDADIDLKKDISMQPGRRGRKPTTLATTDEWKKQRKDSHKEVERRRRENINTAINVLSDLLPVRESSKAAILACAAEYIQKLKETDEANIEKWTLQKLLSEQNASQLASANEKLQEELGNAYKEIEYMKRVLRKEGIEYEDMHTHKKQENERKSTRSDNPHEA"}
{"Strand": "CGTCCTAGTGATTGTCACAAAACTTCCATGAGGAAG", "fluorescence intensity [a.u.]": 81.9}
{"Strand": "CTTTCCCGATCTTGGCTGGTGGGTGTAGCACATTTG", "fluorescence intensity [a.u.]": 57.1}
{"Strand": "CTTCTGTAAATTTGACGAGTGGGTGGACGCGCCCCG", "fluorescence intensity [a.u.]": 82}
{"Strand": "GTCTTGTCTCATTGTCACAAGACTTTCCCCACTTCA", "fluorescence intensity [a.u.]": 170}
{"Strand": "CTAACGAAGGTTTGACAGGTGGGTGACAAGCCAAGT", "fluorescence intensity [a.u.]": 70.3}
{"Strand": "AAGACATATAATCAAAACGTGAGATTCCTGTGGAAA", "fluorescence intensity [a.u.]": 140}
{"Strand": "GCCGAGGGTAACTTCCACGGGAGAACCTTCGGTGCT", "fluorescence intensity [a.u.]": 53.2}
{"Strand": "AAAGCGGTAATTTGGTTGGTGGGTGCAGATATCTAT", "fluorescence intensity [a.u.]": 78.2}
{"Strand": "GACCACAAAAGGATGCACGATCAGAAGCACTGTACC", "fluorescence intensity [a.u.]": 76.2}
{"Strand": "ATACCGGCTCGATAACATGTGTCAAATTCTCACCGG", "fluorescence intensity [a.u.]": 133}
{"Strand": "CTCCAACATGCTTTGCACGGGGGAGGGACAGTAGCT", "fluorescence intensity [a.u.]": 148}
{"Strand": "AATATGCACTGCAACTTCGTGCTTTATTTCAATATC", "fluorescence intensity [a.u.]": 80.1}
{"Strand": "CCTGGCACTCGCTATTTCGTGACGGCGTTCCAGGAC", "fluorescence intensity [a.u.]": 62.8}
{"Strand": "TTAATATTTTCGGTGCTCGTGGTGAGGCAGAAGCTG", "fluorescence intensity [a.u.]": 87}
{"Strand": "CATACCCAACCTTGGAAAGTGGGTGAAGATATTTGT", "fluorescence intensity [a.u.]": 70.6}
{"data": "Sample 2", "target": "CCNB1, cyclin fold, Cln2 fusion (human)", "method": "yeast growth competition, sequencing", "sample": "yeast", "setting": "weak parent motif", "baseline": "not given", "reading": "higher = stronger binding", "parent": "SCAPER docking peptide (human); SNARRSLNFGGST"}
{"Change": "R5M", "normalised enrichment score": 0.924}
{"Change": "S12C", "normalised enrichment score": 0.131}
{"Change": "F9I", "normalised enrichment score": 0.491}
{"Change": "S6Q", "normalised enrichment score": 0.447}
{"Change": "T13E", "normalised enrichment score": 0.731}
{"Change": "S6E", "normalised enrichment score": -0.458}
{"Change": "T13G", "normalised enrichment score": 0.56}
{"Change": "G10T", "normalised enrichment score": 0.298}
{"Change": "G10F", "normalised enrichment score": 0.114}
{"data": "Sample 3", "target": "Ras GTPase-activating protein-binding protein 1, C-terminal RGG region (G3BP1, Homo sapiens, UniProt Q13283)", "method": "RNA Bind-n-Seq", "molecule type": "RNA", "sample": "in vitro", "tested at": "1 µM", "setting": "whole 134-nt RNA, ends assumed", "with": "150 mM KCl", "baseline": "input library", "reading": "higher = stronger binding", "shared flanks, not repeated": "GGGAGUUCUACAGUCCGACGAUC … UGGAAUUCUCGGGUGUCAAGG", "UniProt Q13283, sequence (whole entry, looked up)": "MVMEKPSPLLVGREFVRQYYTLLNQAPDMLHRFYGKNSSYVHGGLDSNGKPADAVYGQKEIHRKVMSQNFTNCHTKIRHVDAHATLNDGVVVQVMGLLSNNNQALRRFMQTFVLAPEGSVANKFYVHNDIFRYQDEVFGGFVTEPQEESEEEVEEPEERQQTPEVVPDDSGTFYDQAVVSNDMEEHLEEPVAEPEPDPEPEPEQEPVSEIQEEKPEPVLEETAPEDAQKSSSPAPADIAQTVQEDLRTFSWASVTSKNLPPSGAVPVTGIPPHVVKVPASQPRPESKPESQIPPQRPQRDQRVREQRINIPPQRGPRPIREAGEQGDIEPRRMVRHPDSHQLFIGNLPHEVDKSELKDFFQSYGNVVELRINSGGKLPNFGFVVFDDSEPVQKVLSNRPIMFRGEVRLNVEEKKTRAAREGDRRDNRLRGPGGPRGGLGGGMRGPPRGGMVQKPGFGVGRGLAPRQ"}
{"Strand": "CAAGUCCUGUGCUACACAUCGUAUGUACCGAAUCGGGUUUUUGGGUUUGGGAGGGAAAGUAUUAUGUUACGCCGUUCGGAUCUGCACUUC", "log2 enrichment": 1.41}
{"Strand": "AAGUCCUGUGCUACACAUCGUAUGUACCGAAUCGGCCCCGGGGCCCCGGCCCCGGGAAAGUAUUAUGUUACGCCGUUCGGAUCUGCACUU", "log2 enrichment": -2.46}
{"Strand": "CAAGUCCUGUGCUACACAUCGUAUGUACCGAAUCGGAGGUUUUUUUGGAAAAAGGAAAGUAUUAUGUUACGCCGUUCGGAUCUGCACUUC", "log2 enrichment": -1.87}
{"Strand": "CACAGACAACACGCACCCACACAGACACAGAGGGAAGAAAUUGGGAUGGGGACAGGGUGCACAGCAGGGCGGGGUAGGACCCCAGCCCCU", "log2 enrichment": -0.436}
{"Strand": "UGCUUCUCUAUGGAAAGGACUUUCCCCCAAGCUGGACGAGGCAUUAAGAAGGAUAGAGGACUCCAGCAGGCUGACUCUACACUUCAUCAU", "log2 enrichment": -0.776}
{"Strand": "UCAAGUCCUGUGCUACACAUCGUAUGUACCGAAUCGGGGAAGGGAAGGGAAGGGAAAGUAUUAUGUUACGCCGUUCGGAUCUGCACUUCC", "log2 enrichment": 2.48}
{"Strand": "CCUCAAGUCCUGUGCUACACAUCGUAUGUACCGAAUCGGUGGGGUGGUGGGGAAAGUAUUAUGUUACGCCGUUCGGAUCUGCACUUCCAG", "log2 enrichment": -0.184}
{"Strand": "AUUCUAUAAAUGGCAAGUAAGCCUGAAGUGAGGAUACUGCAAUUUUCGGAGAAAAGAACAGCAGCUCUUUAAGUGUUUGCAUUUUCUAUU", "log2 enrichment": -1.98}
{"Strand": "CUCAAGUCCUGUGCUACACAUCGUAUGUACCGAAUCGGGAGGGUUUGGGUGGGAAAGUAUUAUGUUACGCCGUUCGGAUCUGCACUUCCA", "log2 enrichment": 1.86}
{"data": "Other studies, line by line"}
{"Molecule": "PhoQ, residues 284 288 289 292 302 303 TLASMF", "target": "PhoP, residues 12 14 15 18 19 NQFFI (Escherichia coli, UniProt P23836)", "test": "Sort-seq, item: YFP reporter", "test system": "E. coli", "conditions": "PhoQ-PhoP variant library, with: 10 µM Mg2+", "how to read": "baseline: high Mg2+ state, higher = stronger signaling", "endpoint": "fold induction", "result": 8.99}
